Measured values from different studies.
Compare with care: the assays were run in different laboratories. Numbers after ± are the reported error.

With CCN(CC)CCN1C(=O)c2ccc3c4cccc5cccc(c6ccc(c2c36)C1=O)c54 the IC50 was 7.6 ± 0.1 µM (human telomerase; modified TRAP; cell-free).
For CN[C@H]1[C@@H](O)[C@@H](NC)C[C@H]2O[C@@H]3O[C@H](C)C[C@@H](NC(=O)Cc4ccccn4)[C@]3(O)O[C@H]12, the IC50 was 9.5 µg/mL (Mycolicibacterium smegmatis 70S ribosome; translation, luciferase reporter).
C=CCO[C@H]1[C@H](O)[C@@H](N)[C@@H](O[C@H]2[C@H](O[C@@H]3O[C@H](CO)[C@@H](O[C@H]4O[C@@H](CN)[C@@H](O)[C@H](O)[C@H]4N)[C@H]3O)[C@@H](O)[C@H](N)C[C@@H]2N)O[C@@H]1CO has an IC50 of 50 ± 16.8 µg/mL (rabbit reticulocyte ribosome; luciferase translation, cell-free translation; rabbit reticulocyte lysate).
C[C@H](N)[C@H]1O[C@@H](O[C@@H]2[C@@H](O)[C@H](N)C[C@H](N)[C@H]2O[C@H]2O[C@H]([C@@H](C)O)[C@@H](O)[C@H](O)[C@H]2N)[C@H](O)[C@@H]1O has an IC50 of 0.4 ± 0.03 µM (Leishmania tarentolae ribosome; cell-free translation, inhibitor, measured: EGFP reporter; Leishmania tarentolae S30 extract).
With O=C([O][Ti+2][O]C(=O)c1ccc(P(c2ccccc2)c2ccccc2)cc1)c1ccc(P(c2ccccc2)c2ccccc2)cc1.[Cl][Au].[Cl][Au].c1cc[cH-]c1.c1cc[cH-]c1 the IC50 was 4.75 µM (thioredoxin reductase human; enzyme activity, inhibitor; CAKI-1; 12 h).
COCOC[C@H]1O[C@H](O[C@H]2[C@H](O[C@@H]3O[C@H](CO)[C@@H](O[C@H]4O[C@@H](CN)[C@@H](O)[C@H](O)[C@H]4N)[C@H]3O)[C@@H](O)[C@H](N)C[C@@H]2N)[C@H](N)[C@@H](O)[C@@H]1OCOC has an IC50 of 91 ± 8 µg/mL (rabbit reticulocyte ribosome; luciferase translation, cell-free translation; rabbit reticulocyte lysate).
For CN[C@@H]1[C@H](O)[C@H](NC)[C@H]2O[C@]3(O)[C@H](O[C@@H]2[C@H]1O)O[C@H](C)C[C@@]3(O)CNCc1ccc(F)cc1, the IC50 was 0.74 µg/mL (Mycolicibacterium smegmatis 70S ribosome; translation, luciferase reporter).
NC[C@@H]1O[C@H](O[C@H]2[C@@H](O)[C@H](O[C@@H]3[C@@H](O)[C@H](N)C[C@H](N)[C@H]3O[C@H]3O[C@H](CO)[C@@H](OCCO)[C@H](O)[C@H]3N)O[C@@H]2CO)[C@H](N)[C@@H](O)[C@@H]1O has an IC50 of 24 ± 5.1 µg/mL (rabbit reticulocyte ribosome; luciferase translation, cell-free translation; rabbit reticulocyte lysate).
N/C(=N\O)c1ccc2c(c1)N(Cc1ccc(C(=O)NO)cc1)c1ccccc1O2 has an IC50 of 0.29 ± 0.01 µM (HeLa nuclear HDACs; enzyme activity, inhibitor; together with: Boc-Lys(Ac)-AMC).
The IC50 of CCCCCO[C@H]1[C@H](O)[C@@H](N)[C@@H](O[C@H]2[C@H](O[C@@H]3O[C@H](CO)[C@@H](O[C@H]4O[C@@H](CN)[C@@H](O)[C@H](O)[C@H]4N)[C@H]3O)[C@@H](O)[C@H](N)C[C@@H]2N)O[C@@H]1CO is reported as 49.7 ± 3.48 µg/mL (rabbit reticulocyte ribosome; luciferase translation, cell-free translation; rabbit reticulocyte lysate).
For N=C(N)SCc1ccccc1CSC(=N)N, the IC50 was 0.74 µM (human IDO1; kynurenine production; A-431; 24 h, together with: IFN-γ, L-tryptophan 178 µM).
Cc1cccc(C)c1NC(=O)[C@H]1CCCN1Cc1ccccc1 gave an IC50 of 10.1 ± 1.8 µM (Nav1.4, Pelophylax lessonae; sodium current, use-dependent blocker, vaseline gap voltage clamp; skeletal muscle fibres; 10 Hz pulse trains).
O=C1c2ccc3c4ccc5c6c(ccc(c7ccc(c2c37)C(=O)N1CCN1CCCCC1)c64)C(=O)N(CCN1CCCCC1)C5=O has an IC50 of 9.5 ± 0.8 µM (human telomerase; modified TRAP; cell-free).
N/C(=N\O)c1ccc2c(c1)Oc1ccccc1N2Cc1ccc(C(=O)NO)cc1 gave an IC50 of 0.29 ± 0.02 µM (HeLa nuclear HDACs; enzyme activity, inhibitor; together with: Boc-Lys(Ac)-AMC).
The IC50 of Cc1cccc(C)c1NC(=O)[C@H]1CCN(Cc2ccccc2)C1 is reported as 2.3 ± 0.1 µM (Nav1.4, Pelophylax lessonae; sodium current, use-dependent blocker, vaseline gap voltage clamp; skeletal muscle fibres; 10 Hz pulse trains).
O=C1c2ccc3c4cccc5c(N6CCNCC6)ccc(c6ccc(c2c36)C(=O)N1CCN1CCCCC1)c54 has an IC50 of 6.9 ± 0.2 µM (human telomerase; modified TRAP; cell-free).
